Measurements of several laboratories.
Every numbered part comes from another study and shows a few of its results, in no order.

Study 1
Target: PABPC1L2, full length, GST fusion (mouse, UniProt A0ABA7IW68)
Method: RNAcompete
Form: RNA
Sample: in vitro
Concentration: 20 nM
Setting: 7-mer, probes averaged, single round
Baseline: mean of 7-mers
Direction: higher = stronger binding
Residues (chain): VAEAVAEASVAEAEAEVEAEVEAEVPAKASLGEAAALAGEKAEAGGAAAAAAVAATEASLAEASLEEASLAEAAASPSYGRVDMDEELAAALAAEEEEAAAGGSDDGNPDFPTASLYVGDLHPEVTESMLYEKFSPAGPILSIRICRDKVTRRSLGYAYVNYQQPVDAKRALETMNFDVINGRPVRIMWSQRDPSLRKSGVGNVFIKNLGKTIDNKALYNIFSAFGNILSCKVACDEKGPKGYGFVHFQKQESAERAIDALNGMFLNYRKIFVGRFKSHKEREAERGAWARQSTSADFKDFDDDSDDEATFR
| Sequence | 7-mer Z-score |
| --- | --- |
| CAUGUAC | -0.126 |
| CAAAUGU | 0.095 |
| GAAAUGC | 0.276 |
| GCGGCGG | 0.0696 |
| UCACUGC | -0.119 |
| UAGCCCU | -0.246 |
| UAGAGCC | -0.148 |
| UAAGCUG | -0.155 |
| AUUGUCA | -0.209 |
| CUCGAAG | -0.119 |
| CACAGCA | 0.00979 |
| AGAUAGU | -0.24 |
| UCAGAGU | -0.251 |
| UAGGUUG | -0.0464 |
| UUUUAUG | 0.215 |
| CCUCACA | -0.195 |
| GUCAUUC | -0.309 |
| AUGGAAU | 0.0478 |
| GCAUAAC | -0.0428 |
| GGGCUAC | 0.149 |
| UAGGGAU | 0.22 |
| UUGACUC | -0.217 |
| CUGGACG | -0.179 |
| GGCAACG | 0.287 |
| GGUUUCG | -0.46 |

Study 2
Target: RING finger protein unkempt homolog, zinc fingers 1-6, GST-SBP tag (UNK, Homo sapiens, UniProt Q9C0B0, residues 30-357)
Method: RNA Bind-n-Seq
Form: RNA
Sample: in vitro
Concentration: not given
Setting: RNA with constant flanks, human and mouse sites, ends assumed
Baseline: input RNA pool
Direction: higher = stronger binding
Shared flanks, not repeated: GGGAGUUCUACAGUCCGACGAUC … CAACAGAGGAUUGAGCAUCA
Target sequence (chain): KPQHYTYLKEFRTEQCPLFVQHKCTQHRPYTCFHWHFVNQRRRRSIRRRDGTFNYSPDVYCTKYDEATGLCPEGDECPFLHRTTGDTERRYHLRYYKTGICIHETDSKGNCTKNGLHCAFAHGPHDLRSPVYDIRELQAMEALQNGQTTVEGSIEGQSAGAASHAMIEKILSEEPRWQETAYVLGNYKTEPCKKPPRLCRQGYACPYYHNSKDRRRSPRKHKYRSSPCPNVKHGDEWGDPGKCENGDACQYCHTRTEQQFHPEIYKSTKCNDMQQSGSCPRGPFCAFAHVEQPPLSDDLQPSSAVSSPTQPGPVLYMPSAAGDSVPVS
| Sequence | bound/input enrichment [ratio] |
| --- | --- |
| UUUAUGACAUGUCCCUUUAUAUUGAAUGCUGUCACAAAGAAUCUGGGAUUAUAUUAUGACAAUAGAAUUCGCAUGUACAGUGAAAGAAGAAUCACUGUUCUUUACAGCCUAGUUCAAGGA | 0.439 |
| GUUGUUUUUGUUUUGAGACAGGGCCUCACUGUGCGGCCCUGGCUGGCCUGGAACUUGCUAUAUAGACCAGGCUAACCUGGAACUCAGCGAACUGUCUGCCCAGCCUUCUUUGGUUUUAUU | 0.0895 |
| AACAGUGAGGAGAUGUGGAAAACCUAUCGUCGUUAUAGUGACUUCCAUGACUUCCACAUGAGAAUCACUGAACAGUUUGAAAGUCUCUCAAGCAUAUUGAAACUUCCUGGAAAAAAGACU | 0.186 |
| ACCCUGCGGAGAAAGGGCAAUAUCAUUCUAAUCCCUGAAAGAAGCAACAGCCCCGAAAACACUAGAAAUAUCUUCUACAAAGGAACCUCCCCCACACGGGCUUAUAAGGAUUGAGUGAUG | 0.909 |
| GUACCAGUGAAGGACAAGAAACUUCUGGAGGUCAAACUGGGGGAGCUGCCAAGCUGGAUCUUGAUGCGGGACUUCAGUCCUAGUGGCAUUUUCGGAGCGUUUCAAAGAGGUUACUACCGG | 0.185 |
| GUUUCAUUCCAUUCCCAUUCAGAUCAUCGUUUUCUGGGCACCGUAGAAAAAGAAGCCACUUUUUCCAAUCCUAAAACUACAAGCCCAAAUAAAGGCAAAGACAAGGAGGCAGAAGAUGGC | 0.388 |
| ACACUGUAUGCCCACUUUGAGCAAGCCAACAUUAAAGCCCAGCUGCAGCAGCUUGGGGUGACCCUUUCUAUGACCAGGACAGAGCUGUCUCCCGCUCAGAUCAAGCAGCUCUUACAAAAC | 0.14 |
| ACCAUGAAUGAUAUCGAUGCUUUUGAAUUUCAUGAAGCCUUCUCAGGCCAGAUUUUAGCUAACUUUAAAGCCAUGGAUUCUGAUUGGUUUGCACAAAACUACAUGGGUAGGAAAACCAAG | 0.639 |
| AGUGAGGAAGUGGCUACCAAGGAGGAGCUGGUGGCAGAUGCCAAGGUGGAAAAGCCAGAAAAAGCCAAGUCUCCUGUGCCAAAAUCACCAGUGGAAGAGAAAGGCAAGUCUCCUGUGCCC | 0.0709 |
| UAUACCUCCAGAGAGCAGACUGUCUACUACGCCAAAGCAUUCUCGAGAGAUUUGCCCAGAGCUGUAGAAAUUCUUGCUGACAUAAUUCAGAACAGCACACUGGGAGAAGCAGAGAUUGAG | 0.219 |
| AAGAUCUCUGAUGAUCUGAUGCAGAAGAUCAGUACUCAGAACCGCCGGGCCCUAGACCUUGUAGCCGCAAAGUGUUACUAUUAUCACGCCCGGGUCUAUGAGUUCCUGGACAAGCUGGAU | 0.149 |

Study 3
Target: Sal-like protein 4, full length isoform B (SALL4, Homo sapiens, UniProt Q9UJQ4-2, residues 1-616)
Method: universal PBM
Form: double-stranded DNA, one strand shown
Sample: in vitro
Concentration: not given
Setting: 8-mer, flanks averaged, mean of replicates
Direction: higher = stronger binding
Target sequence (chain): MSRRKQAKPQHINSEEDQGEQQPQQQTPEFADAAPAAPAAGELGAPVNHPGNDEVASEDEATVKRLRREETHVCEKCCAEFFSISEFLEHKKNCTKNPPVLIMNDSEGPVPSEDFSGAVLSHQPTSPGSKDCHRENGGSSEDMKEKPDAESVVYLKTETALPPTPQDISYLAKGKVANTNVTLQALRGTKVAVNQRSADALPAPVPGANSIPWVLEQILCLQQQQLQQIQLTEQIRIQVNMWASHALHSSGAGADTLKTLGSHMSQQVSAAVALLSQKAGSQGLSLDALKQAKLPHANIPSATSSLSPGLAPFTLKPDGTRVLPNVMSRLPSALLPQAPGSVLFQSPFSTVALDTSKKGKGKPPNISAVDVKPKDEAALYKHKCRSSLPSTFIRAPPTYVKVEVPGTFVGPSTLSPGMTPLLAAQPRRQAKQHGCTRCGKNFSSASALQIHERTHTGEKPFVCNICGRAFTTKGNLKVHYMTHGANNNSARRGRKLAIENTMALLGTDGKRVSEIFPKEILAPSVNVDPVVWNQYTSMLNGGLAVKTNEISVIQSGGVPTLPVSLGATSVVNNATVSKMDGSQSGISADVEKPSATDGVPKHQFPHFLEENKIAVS
| Sequence | E-score |
| --- | --- |
| ATCCCGGA | -0.273 |
| CACCTCTG | -0.163 |
| GTGCGAGA | -0.0891 |
| AGGAAGGG | -0.177 |
| GAAAAAAA | 0.316 |
| TACTCTGA | 0.0883 |
| CTTATTAC | 0.329 |
| ACGCCTAT | 0.0471 |
| GGAGCGAA | -0.135 |
| AGCGGGTC | -0.324 |
| CGTGTAGA | 0.092 |
| ACTCCCAT | 0.047 |
| ACGTAACG | 0.0191 |
| ACGTCATA | 0.303 |
| TGCTAGCA | -0.00046 |
| CACTTGCG | -0.205 |
| AACGCGAT | -0.132 |
| AGTAACGG | 0.0725 |
| CTCTATGC | -0.129 |
| ATCTCCAA | 0.145 |
| GTGGATTA | 0.115 |
| ACATTTCG | 0.0756 |
| TCGGAGCA | -0.116 |
| ATTTTAGG | 0.21 |
| CCGAATGC | -0.194 |

Study 4
Target: Histone acetyltransferase KAT6A, winged helix 1, GST fusion (KAT6A, Homo sapiens, UniProt Q92794, residues 1-85)
Method: protein binding microarray
Form: double-stranded DNA, one strand shown
Sample: in vitro
Concentration: not given
Setting: 8-mer, flanks averaged, mean of 2 arrays, mostly near background
Baseline: not given
Direction: higher = stronger binding
Residues (chain): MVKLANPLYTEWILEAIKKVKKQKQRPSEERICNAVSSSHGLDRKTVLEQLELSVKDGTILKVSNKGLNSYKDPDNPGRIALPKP
| Sequence | E-score |
| --- | --- |
| GTCCCGCA | 0.324 |
| CGGATCCG | 0.338 |
| TCTCTGAA | -0.153 |
| GCCATCGC | 0.178 |
| AAGAACCA | -0.0853 |
| AAAGGGGA | -0.00503 |
| CGAGGCTA | -0.139 |
| ATTTGATC | -0.194 |
| CCATGGGG | -0.101 |
| CAGGCATG | -0.0245 |
| CGATTCTC | 0.00653 |
| AGCACGAG | -0.208 |
| AACTTGAC | -0.265 |
| CAGACGAA | -0.164 |
| CGGCTACC | 0.307 |
| CACTCGAG | -0.25 |
| CGATCAGC | 0.0215 |
| TCATGTCA | -0.165 |

Study 5
Target: RNA binding protein fox-1 homolog 2, RRM domain, GST-SBP tag (RBFOX2, Homo sapiens, UniProt O43251-10, residues 100-194)
Method: RNA Bind-n-Seq
Form: RNA
Sample: in vitro
Concentration: 365 nM
Setting: natural RNA segment, single round, ends assumed
Baseline: no-protein control
Direction: higher = stronger binding
Shared flanks, not repeated: GGGAGUUCUACAGUCCGACGAUC … UGGAAUUCUCGGGUGCCAA
Target sequence (chain): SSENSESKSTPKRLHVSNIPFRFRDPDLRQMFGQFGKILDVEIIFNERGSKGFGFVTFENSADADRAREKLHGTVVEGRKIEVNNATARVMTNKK
| Sequence | RBNS enrichment (R) |
| --- | --- |
| UCUGUUACAGGUCCAUGGCAAUUACUGUUUAUUUUUUCCUGGAAAAAUAUUUUUUUAUAAAAGGCUUUUUUUUUUUUUUAAAUACAUGAGAGGCAUUGGGCUAAGAAAGA | 0.965 |
| AUUAAUUAAUCAUGCUUGGGCUUACUUUUUCAGUUUGUAAGGUUAAGCAUAUGUGCAUGCGUGCGUGUGUAUAUAAAUGCCUUUUCCAUAUCUUAAAUGUCCCUGAUGAG | 0.623 |
| GACCAGCUGUCCAGGGGCUGCCUCCUGCCUUUUCUUUUGUAAAGACAAGACCCUUGGGAGUUUUAAUUCUGUUUUGUACUUGCCCUGUGGGGCCUCCACUGCUUUUCUAU | 0.459 |
| CUUGUUCAAUGGUUGUAUUUAGUGAGCUCAUAGAGGUCCAUCAUAUCAUGACCGAGCUAGGUUGUGUGGGCAGGAAGGUAGGGCUAAGGGGUUGUAGCCUUGCUGGGCAG | 0.668 |
| GUUGCCACUUGGGGUGCACAGAUAAGGGUAGGUCACCAACUGAUUAUGCCUGUCUCUGAGCCAUGCAAGAGGCUCCUAAUGUGCUGGGGGGGGGAGCACAUAUGCAUAUA | 0.89 |
| UUAUCUCAGGGCUCUGCCUGGCCCACCUUCUCUUGGGCCUGGACUCUCCUUAUCCACAUCCCUGCAGAAGGUGGGCCCUAUUCUCAGAAGAGUCCUGGCUGCUGUUGCCA | 0.313 |
| ACUCUUGGGGGCCAAUCCCACUCUUGAGUGCAAUGGUUGCAUUUAGAAUCAGCUAGCUAGCCAGGGGCCAUCCUGUGGGUCAGUAGAUGAGGUGUGUCCUGGCCCUGCGG | 0.569 |
| UUAGCUACCAGCAAUUUCUGUAAACCAAGAGAAGAUUGUCACAAAGAUUCACUACUUUCCAACUGAAUCUAUGCAGUAGAAAAAUCAUUAGAAAAUACAAAAAUUAGCCG | 0.407 |
| AUUCAGUCCCCACUGGCCCUGAGCACGACAGCCCUUCUUACCCUCCCAGGAAUGCCGUGAAAGGAGACAAGGUCUGCCCGACCCAUGUCUAUGCUCUACCCCCAGGGUAG | 0.405 |
| CUUCUAGAGCAAGGAAUUGACUUUUAGGAGCCGUUCUCCCCACAAGACACCACAUGACAAGGGGUAUAAGCCCCAGCCCUGCUCAUUCCCACUCACCAGCUGAGGUCUGU | 0.423 |
| AUUGUGUGGCUUUCUGAGUAUUUGAACCCCAGUCCUGUGUCACCUUCCUUUUUCCUUCUAUGUCCCCUCUCUGCGGGGGGGGCGCUGAGGCUGAGGGGGAGCUGCGUCUU | 0.19 |
| CUCUGUGGUCCUCCCCUCCUGACCCAGGCCUCUGUGGCAUGCUGCAAGGAUCAGAGCCAGACACCAGGAGUCACAGGCCCCACCCAGGAAGGGCAUUCAGGGCCCCUGGG | 18.2 |

Excerpt of the above (study 3):
| Sequence | E-score |
| --- | --- |
| TGCTAGCA | -0.00046 |
| CACTTGCG | -0.205 |
| AACGCGAT | -0.132 |
| AGTAACGG | 0.0725 |
| CTCTATGC | -0.129 |
| ATCTCCAA | 0.145 |
| GTGGATTA | 0.115 |
